Results collected from several papers.
Lines come from different studies, so protocols differ. “And” joins repeats or separate records; there may be more than shown. Numbers after ± are the reported error.
Alpha-amylase: Alpha-amylase (Bos taurus, UniProt Q3MHH8)
NPY2R: Neuropeptide Y receptor type 2 (NPY2R, Homo sapiens, UniProt P49146)
Uridine nucleoside ribohydrolase: Uridine nucleoside ribohydrolase (Trichomonas vaginalis, UniProt A2FTT0)
PBK: Lymphokine-activated killer T-cell-originated protein kinase (PBK, Homo sapiens, UniProt Q96KB5)
UniProt Q96KB5, sequence (whole entry, looked up): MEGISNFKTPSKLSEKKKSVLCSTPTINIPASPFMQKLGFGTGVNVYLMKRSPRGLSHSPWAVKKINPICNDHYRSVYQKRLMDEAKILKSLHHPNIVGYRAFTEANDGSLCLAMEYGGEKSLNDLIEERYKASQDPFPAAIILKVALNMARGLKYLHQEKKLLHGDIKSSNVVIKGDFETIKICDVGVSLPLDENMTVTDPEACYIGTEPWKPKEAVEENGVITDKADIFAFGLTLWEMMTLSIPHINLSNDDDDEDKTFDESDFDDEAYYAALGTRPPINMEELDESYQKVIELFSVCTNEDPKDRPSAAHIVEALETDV
SPHK2: Sphingosine kinase 2 (SPHK2, Homo sapiens, UniProt Q9NRA0)
UniProt Q9NRA0, sequence (whole entry, looked up): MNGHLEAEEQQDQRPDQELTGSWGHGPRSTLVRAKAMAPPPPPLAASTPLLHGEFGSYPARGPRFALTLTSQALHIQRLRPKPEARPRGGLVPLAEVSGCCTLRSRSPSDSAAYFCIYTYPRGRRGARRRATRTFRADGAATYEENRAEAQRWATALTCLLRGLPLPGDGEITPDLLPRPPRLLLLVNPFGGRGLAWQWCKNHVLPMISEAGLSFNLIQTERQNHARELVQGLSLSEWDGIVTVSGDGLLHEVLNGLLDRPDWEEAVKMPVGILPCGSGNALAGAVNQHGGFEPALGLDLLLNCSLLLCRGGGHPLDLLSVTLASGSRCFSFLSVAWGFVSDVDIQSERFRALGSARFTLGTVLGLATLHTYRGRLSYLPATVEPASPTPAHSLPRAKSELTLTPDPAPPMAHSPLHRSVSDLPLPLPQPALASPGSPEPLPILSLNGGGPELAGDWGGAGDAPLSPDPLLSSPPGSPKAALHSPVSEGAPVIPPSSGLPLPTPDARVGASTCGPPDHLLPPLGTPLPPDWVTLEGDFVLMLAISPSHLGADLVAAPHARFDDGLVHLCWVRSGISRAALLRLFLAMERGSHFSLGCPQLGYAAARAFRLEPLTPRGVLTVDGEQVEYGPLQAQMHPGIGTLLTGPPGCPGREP
HTR1D: 5-hydroxytryptamine receptor 1D (HTR1D, Homo sapiens, UniProt P28221)
UniProt P28221, sequence (whole entry, looked up): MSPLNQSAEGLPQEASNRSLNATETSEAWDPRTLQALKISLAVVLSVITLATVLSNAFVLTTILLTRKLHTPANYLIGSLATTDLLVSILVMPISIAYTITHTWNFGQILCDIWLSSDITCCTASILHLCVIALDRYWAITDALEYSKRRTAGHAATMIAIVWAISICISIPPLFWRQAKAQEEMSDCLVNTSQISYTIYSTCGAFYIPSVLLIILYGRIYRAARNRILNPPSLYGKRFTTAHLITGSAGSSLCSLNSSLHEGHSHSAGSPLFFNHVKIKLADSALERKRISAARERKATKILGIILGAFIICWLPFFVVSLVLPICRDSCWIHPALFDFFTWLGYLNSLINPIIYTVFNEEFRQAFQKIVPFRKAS
MMP2: 72 kDa type IV collagenase (MMP2, Homo sapiens, UniProt P08253)
UniProt P08253, sequence (whole entry, looked up): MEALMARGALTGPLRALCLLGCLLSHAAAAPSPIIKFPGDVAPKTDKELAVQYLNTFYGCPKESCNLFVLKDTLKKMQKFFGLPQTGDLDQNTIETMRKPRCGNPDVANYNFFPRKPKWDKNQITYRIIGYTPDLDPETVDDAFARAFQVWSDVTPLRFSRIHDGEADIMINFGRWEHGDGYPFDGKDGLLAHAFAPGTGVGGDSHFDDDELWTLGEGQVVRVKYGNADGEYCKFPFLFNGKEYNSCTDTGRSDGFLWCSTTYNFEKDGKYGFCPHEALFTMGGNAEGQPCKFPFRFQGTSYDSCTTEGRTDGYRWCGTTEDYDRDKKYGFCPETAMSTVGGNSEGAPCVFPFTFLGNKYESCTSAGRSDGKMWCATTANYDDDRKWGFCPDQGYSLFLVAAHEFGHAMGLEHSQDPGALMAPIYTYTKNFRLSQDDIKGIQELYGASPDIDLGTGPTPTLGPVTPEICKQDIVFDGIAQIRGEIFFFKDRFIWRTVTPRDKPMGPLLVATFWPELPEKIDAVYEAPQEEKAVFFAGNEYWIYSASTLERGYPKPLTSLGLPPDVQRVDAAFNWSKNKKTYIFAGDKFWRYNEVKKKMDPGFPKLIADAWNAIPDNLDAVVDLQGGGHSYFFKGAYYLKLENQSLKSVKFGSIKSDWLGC
HDAC6: Protein deacetylase HDAC6 (HDAC6, Homo sapiens, UniProt Q9UBN7)
UniProt Q9UBN7, sequence (whole entry, looked up): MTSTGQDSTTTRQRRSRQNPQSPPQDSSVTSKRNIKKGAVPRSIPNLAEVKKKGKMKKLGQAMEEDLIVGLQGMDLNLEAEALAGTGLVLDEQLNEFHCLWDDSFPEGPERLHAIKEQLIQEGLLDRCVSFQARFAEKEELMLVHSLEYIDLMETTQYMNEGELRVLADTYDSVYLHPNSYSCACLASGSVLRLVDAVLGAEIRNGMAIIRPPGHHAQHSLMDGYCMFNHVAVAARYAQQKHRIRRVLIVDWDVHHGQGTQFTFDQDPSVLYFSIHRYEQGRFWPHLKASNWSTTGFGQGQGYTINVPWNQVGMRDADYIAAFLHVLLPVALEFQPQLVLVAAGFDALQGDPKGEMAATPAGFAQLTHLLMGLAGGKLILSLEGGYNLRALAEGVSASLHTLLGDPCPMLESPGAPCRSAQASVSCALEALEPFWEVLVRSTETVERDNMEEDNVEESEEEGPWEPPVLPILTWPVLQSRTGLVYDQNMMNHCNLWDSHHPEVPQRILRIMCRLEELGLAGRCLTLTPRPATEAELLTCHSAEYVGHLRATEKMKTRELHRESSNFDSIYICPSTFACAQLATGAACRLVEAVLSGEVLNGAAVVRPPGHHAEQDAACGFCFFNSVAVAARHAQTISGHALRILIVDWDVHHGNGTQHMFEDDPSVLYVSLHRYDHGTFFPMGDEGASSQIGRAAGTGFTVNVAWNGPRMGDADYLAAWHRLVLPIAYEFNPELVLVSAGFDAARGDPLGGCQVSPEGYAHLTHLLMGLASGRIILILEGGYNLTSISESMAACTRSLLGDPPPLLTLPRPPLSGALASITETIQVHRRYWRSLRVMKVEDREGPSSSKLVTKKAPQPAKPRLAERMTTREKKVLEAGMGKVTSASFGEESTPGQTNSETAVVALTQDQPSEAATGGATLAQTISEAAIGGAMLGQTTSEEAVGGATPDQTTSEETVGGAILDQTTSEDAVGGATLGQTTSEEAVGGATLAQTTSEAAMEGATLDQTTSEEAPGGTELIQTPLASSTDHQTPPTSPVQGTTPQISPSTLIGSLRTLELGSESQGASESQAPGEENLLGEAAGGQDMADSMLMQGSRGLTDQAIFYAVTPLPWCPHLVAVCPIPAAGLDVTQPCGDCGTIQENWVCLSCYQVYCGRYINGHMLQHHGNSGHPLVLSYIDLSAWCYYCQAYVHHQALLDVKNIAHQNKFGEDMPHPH
TNKS2: Poly [ADP-ribose] polymerase tankyrase-2 (TNKS2, Homo sapiens, UniProt Q9H2K2)
UniProt Q9H2K2, sequence (whole entry, looked up): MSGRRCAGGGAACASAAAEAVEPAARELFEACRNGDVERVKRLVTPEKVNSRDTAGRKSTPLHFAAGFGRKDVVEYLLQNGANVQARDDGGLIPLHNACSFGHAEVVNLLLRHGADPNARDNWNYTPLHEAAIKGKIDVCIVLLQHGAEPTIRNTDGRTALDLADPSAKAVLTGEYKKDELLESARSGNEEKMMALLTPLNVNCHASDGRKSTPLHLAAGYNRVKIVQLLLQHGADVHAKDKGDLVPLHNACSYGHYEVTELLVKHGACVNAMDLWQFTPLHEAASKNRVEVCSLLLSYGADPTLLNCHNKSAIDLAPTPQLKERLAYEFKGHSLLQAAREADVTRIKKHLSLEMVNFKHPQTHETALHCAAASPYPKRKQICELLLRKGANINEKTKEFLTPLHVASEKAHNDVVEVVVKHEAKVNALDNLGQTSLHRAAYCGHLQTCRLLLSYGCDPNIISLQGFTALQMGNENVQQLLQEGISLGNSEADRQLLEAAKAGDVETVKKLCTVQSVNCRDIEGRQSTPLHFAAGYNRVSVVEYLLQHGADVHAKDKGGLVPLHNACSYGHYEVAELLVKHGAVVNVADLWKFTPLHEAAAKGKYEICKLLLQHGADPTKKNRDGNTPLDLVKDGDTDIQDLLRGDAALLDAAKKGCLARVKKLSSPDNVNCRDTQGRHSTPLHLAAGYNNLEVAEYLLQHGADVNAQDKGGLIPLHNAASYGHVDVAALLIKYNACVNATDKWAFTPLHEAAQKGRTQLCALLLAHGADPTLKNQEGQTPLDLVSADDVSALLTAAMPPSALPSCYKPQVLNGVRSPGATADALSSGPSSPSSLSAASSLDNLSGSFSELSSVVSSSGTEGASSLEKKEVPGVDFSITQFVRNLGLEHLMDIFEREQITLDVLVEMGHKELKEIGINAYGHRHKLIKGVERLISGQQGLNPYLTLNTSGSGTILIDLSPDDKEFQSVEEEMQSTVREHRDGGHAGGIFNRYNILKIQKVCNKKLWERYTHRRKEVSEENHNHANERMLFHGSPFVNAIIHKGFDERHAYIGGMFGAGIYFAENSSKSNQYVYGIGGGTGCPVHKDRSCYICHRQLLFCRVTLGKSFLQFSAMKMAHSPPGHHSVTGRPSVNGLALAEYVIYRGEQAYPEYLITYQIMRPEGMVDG
HTR2A: 5-hydroxytryptamine receptor 2A (HTR2A, Homo sapiens, UniProt P28223)
UniProt Q9UM07, sequence (whole entry, looked up): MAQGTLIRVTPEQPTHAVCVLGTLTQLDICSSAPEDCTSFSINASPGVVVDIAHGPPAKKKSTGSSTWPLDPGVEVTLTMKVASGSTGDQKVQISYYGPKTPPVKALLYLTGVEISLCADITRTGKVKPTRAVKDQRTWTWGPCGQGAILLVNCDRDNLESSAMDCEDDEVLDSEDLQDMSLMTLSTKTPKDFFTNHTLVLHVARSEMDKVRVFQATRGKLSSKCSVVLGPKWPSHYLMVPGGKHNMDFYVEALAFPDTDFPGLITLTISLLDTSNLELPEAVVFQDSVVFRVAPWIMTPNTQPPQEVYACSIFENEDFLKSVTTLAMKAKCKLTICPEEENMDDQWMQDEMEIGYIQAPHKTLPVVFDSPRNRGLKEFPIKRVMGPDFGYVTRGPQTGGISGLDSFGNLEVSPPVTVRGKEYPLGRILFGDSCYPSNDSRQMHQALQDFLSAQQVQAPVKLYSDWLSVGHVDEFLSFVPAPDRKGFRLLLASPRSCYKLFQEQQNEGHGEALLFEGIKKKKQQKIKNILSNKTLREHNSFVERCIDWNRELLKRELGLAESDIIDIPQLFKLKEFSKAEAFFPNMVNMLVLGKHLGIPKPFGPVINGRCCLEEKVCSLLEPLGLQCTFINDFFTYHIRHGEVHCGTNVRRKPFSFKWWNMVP

SMILES	target	test	test system	conditions	inhibition
CC1=NN(c2ccccc2F)C(=O)/C1=N\Nc1ccc(S(N)(=O)=O)cc1	Alpha-amylase	enzyme activity, inhibitor, glucose oxidase	–	500 µg/mL, together with: dextrin	16.7%
C/C=C/C(=O)Nc1ccc2nc(NCCCCCN(C)C)nc(NCCCCCCN(C)C)c2c1	SMYD2 (Homo sapiens, UniProt Q9NRG4)	enzyme activity, inhibitor, radiometric	–	10 µM	32%
CCC(=O)N(C)c1ccc(Cl)c(Cl)c1	NPY2R	ligand displacement, radioligand	–	10 µM	< 10%
COC(=O)c1cccc2c1NC(=O)C2(O)CC(NC(=O)c1cc2[nH]ncc2cn1)C(=O)NCc1ccc2c(c1)OC(F)(F)O2 (stereo not drawn)	PHGDH (Homo sapiens, UniProt O43175)	enzyme activity, inhibitor	–	25 µM	53.1%
Cc1cccnc1-c1cccc(C#N)c1	Uridine nucleoside ribohydrolase	19F NMR	–	100 µM	100%
Cc1cc(Cl)cc(-c2ccnc3cc(CN4C(=O)C5C(C4=O)C5(C)C)sc23)c1C[C@@H]1CNCCO1 (stereo partly drawn)	USP7 (Homo sapiens, UniProt Q93009, V517F)	enzyme activity, inhibitor	–	0.05 µM	34.4% and 25.8%
CCn1cc(C(=O)O)c(=O)c2c(N)c(F)c(NC3CCCCC3)cc21	PBK	kinase activity	–	0.1 µM, together with: ATP at Km	6%
C=CC(=O)Nc1cccc(-c2cnc3[nH]cc(C(=O)NC(C)(C)C)c3n2)c1	SPHK2	enzyme activity, inhibitor	–	0.1 µM	3%
CN(Cc1ccc(/C=C/C(=O)NO)cc1)CC12CC3CC(CC(C3)C1)C2	human GR receptor	agonist radioligand binding	–	0.05 µM	-3%
Cc1cccc(O[C@H]2CCC[C@@H](C(C)CNCc3ccncc3)C2)c1 (relative stereo)	SPHK2	enzyme activity, inhibitor	–	10 µM	0%
CN1CCN(Cc2ccc(-c3ccc(CO[C@H]4CCC[C@@H]4NC(=O)c4cc(-c5cnn(C)c5)cnc4N)cc3)cc2)CC1	ERN2 (Homo sapiens, UniProt Q76MJ5)	enzyme activity, inhibitor	–	0.1 µM	2%
Cn1cc(-c2ccc(C(N)=O)cc2)cn1	Uridine nucleoside ribohydrolase	19F NMR	–	50 µM, together with: 0.01% Triton X-100	100%
COc1ccc(C#CC2=C[C@H]3C[C@@]4(OC(=O)C=C24)[C@H]2CC[C@H](C(OC)OC)N32)cc1	PDE3A (Homo sapiens, UniProt Q14432)	cell-free assay, inhibitor	–	10 µM	0%
CN1CCN(CC(=O)c2ccccc2)C1=O	Uridine nucleoside ribohydrolase	19F NMR	–	50 µM, together with: 0.01% Triton X-100	73.9%
Cc1[nH]nc2c1N=C(c1ccccc1Cl)c1cnc(N3CCOCC3)cc1N2	NPY2R	cell-free assay	–	10 µM	5%
CC(=O)Nc1ccccc1-c1ccc(O)cc1	Uridine nucleoside ribohydrolase	19F NMR	–	100 µM, together with: 0.01% Triton X-100	100%
CC1=NN(c2cccc(F)c2)C(=O)/C1=N\Nc1ccc(S(N)(=O)=O)cc1	Alpha-amylase	enzyme activity, inhibitor, glucose oxidase	–	10 µg/mL, together with: dextrin	16.891 ± 0.000383%
C[Si](C)(C)C[C@H](CN)CC(=O)O	SSTR1 (Homo sapiens, UniProt P30872)	ligand displacement, radioligand	–	250 µM	0%
CC(=O)C12NC(C)(C)CC1(C)C(=O)C1=C2c2c(c3c4n2C(C)(C)CC2=C4C4(CC(C)(C)NC(C)(C4)C2=O)CC3(C)C)C(=O)C(C)(C)N1 (single isomer, unassigned; (-))	CHRNA7 (Homo sapiens, UniProt P36544)	ion current, antagonist, whole-cell patch clamp	HEK293T	10 µM	16.96 ± 0.04%
Cl.Cl.N[C@@H](C(=O)N1CCCC1)C1CCN(c2nccc3c(-c4ncc(Cl)cc4Cl)cccc23)CC1	PADI4 (Homo sapiens, UniProt Q9UM07)	enzyme activity, inhibitor	–	4.89 nM, together with: Ca2+ 0.4 mM	-0.639% and 5.75% and 2.86%
CC(=O)Nc1ccc(F)cc1-c1ccncc1	Uridine nucleoside ribohydrolase	19F NMR	–	50 µM, together with: 0.01% Triton X-100	47.7%

SMILES	target	test	test system	conditions	inhibition
Cc1ncc(/C=N/NC(=O)c2cc3c(s2)CCCC3)cn1	dxs (Deinococcus radiodurans, UniProt Q9RUB5)	enzyme activity, inhibitor	–	120 µM	30.9%
CC1Cc2ccccc2N1C(=O)CN1CCN(Cc2ccccc2)CC1 (stereo not drawn)	HTR1D	radioligand binding	–	concentration not given, together with: [3H]5-CT	63%
O=C(CNc1nc(NNC(=O)c2ccc(Nc3nc(Nc4ccc(C(=O)NNc5nc(NCC(=O)NO)nc(N6CCCCC6)n5)cc4)nc(Nc4ccc(C(=O)NNc5nc(NCC(=O)NO)nc(N6CCCCC6)n5)cc4)n3)cc2)nc(N2CCCCC2)n1)NO	MMP2	enzyme activity, inhibitor, fluorescence	–	1e-05 µg/mL	33%
Cc1c(OS(=O)(=O)Oc2ccc3ccccc3c2)cccc1C(=O)NO	HDAC6	enzyme activity, inhibitor, fluorescence	–	10 µM	37%
CS(=O)(=O)Nc1cccc(-c2csc3cnc(Nc4ccc(N5CCN(CCCCCOc6cccc7c6C(=O)N(C6CCC(=O)NC6=O)C7=O)CC5)cc4)nc23)c1 (stereo not drawn)	MLKL (Homo sapiens, UniProt Q8NB16)	probe labelling, inhibitor, KiNativ chemoproteomics	MOLT-4	1 µM	-15.7%
O=C(CCCc1ccc2c(c1)OCCO2)NCCNC(=O)Cn1c(=O)[nH]c(=O)c2ccccc21	TNKS2	enzyme activity, inhibitor	–	50 nM	18%
O=C1c2sc(-c3ccc(N4CCC(CO)CC4)nc3F)nc2CCN1c1cccnc1	HTR2A	ligand displacement, radioligand	–	1 µM	5%
CCCCCCN(O)C(=O)CCCCC[C@@H]1NC(=O)[C@H]([C@@H](C)CC)NC(=O)[C@H](Cc2ccccc2C(F)(F)F)NC(=O)CCSCc2cccc(n2)CSCCCNC1=O	HDAC6	enzyme activity, inhibitor, fluorogenic	–	30 µM	20%
Cc1c(OS(=O)(=O)Oc2ccc(C(C)C)cc2)cccc1C(=O)NO	HDAC6	enzyme activity, inhibitor, fluorescence	–	10 µM	19%
CN(C)C/C=C/C(=O)Nc1ccc2nc(NCCCCCN(C)C)nc(NCCCCCCN(C)C)c2c1	PRDM9 (Homo sapiens, UniProt Q9NQV7)	enzyme activity, inhibitor, radiometric	–	10 µM	61%
CC1Cc2ccccc2N1C(=O)CN1CCN(c2ccccc2)CC1 (stereo not drawn)	HTR1D	radioligand binding	–	concentration not given, together with: [3H]5-CT	8.7%
O=C1c2sc(-c3ccc(N4CCC(F)C4)nc3F)nc2CCN1c1cccnc1 (stereo not drawn)	CRHR1 (Homo sapiens, UniProt P34998)	ligand displacement, radioligand	–	1 µM	-6%
Brc1ccccc1-c1nnc(CSc2nnnn2-c2ccccc2)o1	HTR2A	ligand displacement, radioligand	–	10 µM	5%
Cc1cc(C(=O)NCCNC(=O)c2cccc(COc3ccccc3C(N)=O)c2)n[nH]1	TNKS2	enzyme activity, inhibitor	–	0.104 µM	100%
N#Cc1c(Nc2ccccc2C(F)(F)F)s[nH]c1=O	TNKS2	enzyme activity, inhibitor	–	10 µM	31%
Cc1cccnc1-c1ccc(C(N)=O)cc1	Uridine nucleoside ribohydrolase	19F NMR	–	50 µM	100%
O=C(CNc1nc(Cl)nc(NNC(=O)c2ccc(Nc3nc(Nc4ccc(C(=O)NNc5nc(Cl)nc(NCC(=O)NO)n5)cc4)nc(Nc4ccc(C(=O)NNc5nc(Cl)nc(NCC(=O)NO)n5)cc4)n3)cc2)n1)NO	MMP2	enzyme activity, inhibitor, fluorescence	–	0.01 µg/mL	82%
C=C(NC(=O)c1csc(-c2ccc(NC(=O)CCCCCBr)cc2)n1)C(=O)NC(=C)C(=O)OC	Thioredoxin reductase 2, mitochondrial (Txnrd2, Mus musculus, UniProt Q9JLT4)	enzyme activity	–	50 µM, 1 h, pH 8.0, 37 °C	no inhibition
NC(=O)C[C@H]1CCc2sc3ncnc(O[C@H]4CC[C@H](N5CCOCC5)CC4)c3c21	PBK	enzyme activity, inhibitor	–	10 µM	6%
COc1ccc(CN2CC3CCCCN3C2=O)cc1 (stereo not drawn)	Uridine nucleoside ribohydrolase	19F NMR	–	100 µM	100%
O=C(CC1CC2CCC1C2)NCCNC(=O)Cn1c(=O)[nH]c(=O)c2ccccc21 (stereo not drawn)	TNKS2	enzyme activity, inhibitor	–	50 nM	17%
